Measured values collected from several papers.
Protocols differ between the studies behind these lines. Values joined by “and” are separate records of one study, mostly repeats; a detail may differ. ± gives the spread as reported.
HLA class I histocompatibility antigen, A alpha chain allele A*02:01: HLA class I histocompatibility antigen, A alpha chain, allele A*02:01 (Homo sapiens, UniProt P04439)
Chain of UniProt P48067 (whole entry, looked up): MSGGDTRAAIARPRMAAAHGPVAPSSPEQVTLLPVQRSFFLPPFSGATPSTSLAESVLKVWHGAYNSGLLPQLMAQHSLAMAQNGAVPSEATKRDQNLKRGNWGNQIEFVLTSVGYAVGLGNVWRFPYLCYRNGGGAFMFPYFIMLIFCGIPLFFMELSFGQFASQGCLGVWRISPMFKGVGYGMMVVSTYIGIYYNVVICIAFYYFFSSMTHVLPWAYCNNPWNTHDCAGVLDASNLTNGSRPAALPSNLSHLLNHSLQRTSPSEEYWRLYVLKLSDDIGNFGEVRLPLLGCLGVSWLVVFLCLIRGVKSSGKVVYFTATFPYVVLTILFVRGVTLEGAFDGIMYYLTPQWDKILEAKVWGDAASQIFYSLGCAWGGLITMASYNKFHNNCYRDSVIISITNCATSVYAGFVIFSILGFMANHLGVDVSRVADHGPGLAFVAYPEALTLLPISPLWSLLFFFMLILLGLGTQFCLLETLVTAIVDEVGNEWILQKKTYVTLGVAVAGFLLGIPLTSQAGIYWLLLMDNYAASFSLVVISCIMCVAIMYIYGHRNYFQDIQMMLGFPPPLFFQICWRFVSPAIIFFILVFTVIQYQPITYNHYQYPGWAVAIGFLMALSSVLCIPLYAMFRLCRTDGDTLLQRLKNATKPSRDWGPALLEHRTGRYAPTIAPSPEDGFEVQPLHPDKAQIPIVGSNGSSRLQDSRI
Chain of UniProt Q64663 (whole entry, unmodified, looked up): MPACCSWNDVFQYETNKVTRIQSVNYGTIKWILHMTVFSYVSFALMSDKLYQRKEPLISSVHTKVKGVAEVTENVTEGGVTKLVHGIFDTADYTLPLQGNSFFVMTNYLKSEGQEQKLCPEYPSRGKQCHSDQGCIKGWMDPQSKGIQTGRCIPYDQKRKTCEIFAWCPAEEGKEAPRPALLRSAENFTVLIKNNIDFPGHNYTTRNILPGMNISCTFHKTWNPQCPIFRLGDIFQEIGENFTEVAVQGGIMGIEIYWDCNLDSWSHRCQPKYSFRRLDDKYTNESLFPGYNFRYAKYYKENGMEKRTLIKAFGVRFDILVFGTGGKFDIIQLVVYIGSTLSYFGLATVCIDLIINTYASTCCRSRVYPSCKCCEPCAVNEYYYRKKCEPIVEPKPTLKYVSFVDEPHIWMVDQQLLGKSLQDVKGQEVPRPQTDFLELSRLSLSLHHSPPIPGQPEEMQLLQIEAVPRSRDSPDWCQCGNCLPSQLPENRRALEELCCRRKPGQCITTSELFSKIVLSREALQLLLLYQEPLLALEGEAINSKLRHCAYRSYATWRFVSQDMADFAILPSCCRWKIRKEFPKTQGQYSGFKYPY

triosephosphate isomerase
co-IP enrichment (co-immunoprecipitation; human RBC membrane; DSSO crosslinker, unit not given, with: Band 3 peptide 1-56 bait; reference: negative control): 0.497

RLYQWIPQV
reporter activation (Jurkat T cells expressing 1G4 TCR; NFAT-eGFP reporter, fluorescence microscopy; peptide; concentration not given, HLA-A*02:01 NY-ESO system): 1.31%

GSGAGKETSF
binding intensity (human MAGI1-3/6 PDZ construct (MBP fusion); automated holdup; peptide, crude extract; concentration not given, corrected by standard peak, unit not given; reference: biotin control resin, higher = stronger binding): 0.014

IMQLMPFGC
half-life of peptide-HLA complex (HLA class I histocompatibility antigen, A alpha chain allele A*02:01; complex stability, off-rate; peptide; 37 °C): 2.2 h

MTVCNASQRQAHAQATAVSL
selectivity ratio (HCC95 lung squamous carcinoma; phage binding output/input; peptide; reference: control phage): 2.9 ± 1.1

GSGAGQITKV
binding intensity (human MAGI1-3/6 PDZ construct (MBP fusion); automated holdup; peptide, purified PDZ protein; concentration not given, unit not given; reference: biotin control resin, higher = stronger binding): 0.188

caspofungin
magnesium (adult ICU patients, mITT, serum; dose not given, Follow-up): 0.6 mmol/L

methyl-β-cyclodextrin
glycine uptake rate (SLC6A9 (Homo sapiens, UniProt P48067); transport activity, [3H]glycine uptake; 2.5 mg/mL, 1 min, with: glycine 75 µM; higher = more transport): 25.1 a.u. and 24 a.u. and 26.1 a.u. and 25.8 a.u.

DNA 1 CACTGGCCGTCTTACGGTCGCTCTGCTCGACG / DNA 2 CGACCGTAAGACGGCCAGTG (dsDNA; 20 bp, 3' 12 nt overhang)
Kd (RECQL 63-592 K325A (Bos taurus, UniProt A0JN36); fluorescence anisotropy; double-stranded DNA; with: Mg2+ 3 mM): 0.0185 ± 0.0026 µM

ACEQNPIYWARYADWLFTTPLLLLDLALLVDADEGT
mean fluorescence intensity (ex vivo fluorescence imaging; peptide, BALB/c mice, 4T1 tumour-bearing, 4T1 tumour; intravenous, 5 nmol, 24 h post-injection; higher = more uptake): 1290 ± 290 a.u.

Peginesatide
phosphorylation level (UT7/EPO; tyrosine phosphorylation, LC-MS/MS phosphoproteomics, GluC, item: SHIP1 tyrosine 865; 10 nM, 15 min, with: 10 U/mL EPO; reference: vehicle): 2.5 fold

11-deoxycorticosterone
Kd (human CYP11B2; stopped-flow kinetic modelling; Model, branched, 4-state, CS, with: equimolar adrenodoxin): 9.05 µM

GGWVEKETYY
binding intensity (human SCRIB PDZ3-4 tandem (MBP fusion); automated holdup; peptide, crude extract; concentration not given, corrected by standard peak, unit not given; reference: biotin control resin, higher = stronger binding): 0.0217

ACDDQNPWRAYLDLLFPTDTLLLDLLW
mean fluorescence intensity (ex vivo fluorescence imaging; peptide, BALB/c mice, 4T1 tumour-bearing, kidney; intravenous, 5 nmol, 48 h post-injection; higher = more uptake): 918 ± 226 a.u.

Polymyxin B
membrane depolarisation (Staphylococcus aureus; DiSC3(5) fluorescence; concentration not given, 57 min; higher = more depolarisation): 711 a.u. and 576 a.u. and 519 a.u.

colistin
MIC (Pseudomonas aeruginosa; broth microdilution; clinical isolate RKI-No_482/15): 1 µg/mL

Teicoplanin
recovery (QC solution; 2 days, 2–6 °C, low QC level): 99.2%

GLFQWISGA
reporter activation (Jurkat T cells expressing 1G4 TCR; NFAT-eGFP reporter, flow cytometry; peptide; concentration not given, HLA-A*02:01 NY-ESO system): 0.11%

USP14
co-IP enrichment (co-immunoprecipitation; human RBC cytosol; DSSO crosslinker, unit not given, with: Band 3 peptide 1-56 bait; reference: negative control): 6540

epoetin alfa
mRNA level (UT7/EPO; microarray, item: EGR4 (probe 207768_at); 5 U/mL, 90 min, with: SCF 10 nM; reference: vehicle): 12 fold

PLLEWMPRL
reporter activation (Jurkat T cells expressing 1G4 TCR; NFAT-eGFP reporter, flow cytometry; peptide; concentration not given, HLA-A*02:01 NY-ESO system): 0.19%

NRVDSKETEC
normalised SPR binding response (human MAGI1-2/6 PDZ construct (MBP fusion); surface plasmon resonance; peptide; concentration not given; higher = stronger binding): 0 normalised RU

BzATP
normalized current (P2X purinoceptor 7 (P2rx7, Rattus norvegicus, UniProt Q64663, Q143A); ion current, agonist, two-electrode voltage clamp; Xenopus oocytes; 0.41 µM): 0.063 and 0.0135 and 0.023

GLFQWIVQA
reporter activation (Jurkat T cells expressing 1G4 TCR; NFAT-eGFP reporter, flow cytometry; peptide; concentration not given, HLA-A*02:01 NY-ESO system): 0.22%

cotadutide
plasma triglycerides (ob/ob mouse, AMLN diet NASH model; dose not given, terminal): 138 ± 26 mg/dL

SEC11A
co-IP enrichment (co-immunoprecipitation; human RBC membrane; unit not given, with: Band 3 peptide 1-56 bait; reference: negative control): 1.56

GSGAGSETSV
binding intensity (human MAGI1-2/6 PDZ construct (MBP fusion); automated holdup; peptide, purified PDZ protein; concentration not given, unit not given; reference: biotin control resin, higher = stronger binding): 0.0979

human HSC70
co-IP enrichment (co-immunoprecipitation; human RBC cytosol; DMTMM crosslinker, unit not given, with: Band 3 peptide 1-56 bait; reference: negative control): 3170

SLLQWISQV
reporter activation (Jurkat T cells expressing 1G4 TCR; NFAT-eGFP reporter, flow cytometry; peptide; concentration not given, HLA-A*02:01 NY-ESO system): 79.2%

FKBP12
co-IP enrichment (co-immunoprecipitation; human plasma; unit not given, with: Band 3 peptide 1-56 bait; reference: negative control): 0

GLLQWVSVV
reporter activation (Jurkat T cells expressing 1G4 TCR; NFAT-eGFP reporter, flow cytometry; peptide; concentration not given, HLA-A*02:01 NY-ESO system): 0.095%

KDECVIATEV
binding intensity (human MAGI1-3/6 PDZ construct (MBP fusion); automated holdup; peptide, crude extract; concentration not given, uncorrected, unit not given; reference: biotin control resin, higher = stronger binding): -0.0502

GLFQWVAQA
reporter activation (Jurkat T cells expressing 1G4 TCR; NFAT-eGFP reporter, fluorescence microscopy; peptide; concentration not given, HLA-A*02:01 NY-ESO system): 0.00272%

6-carboxyfluorescein
uptake (SLCO2A1 (Homo sapiens, UniProt Q92959, C420F); compound uptake, substrate; HEK293F expressing SLCO2A1 C420F; 50 µM; reference: wild type): 10.9% and 13.5% and 12.6%

MQLMPFGCLL
half-life of peptide-HLA complex (HLA class I histocompatibility antigen, A alpha chain allele A*02:01; complex stability, off-rate; peptide; 37 °C): 1.2 h

CCT4
co-IP enrichment (co-immunoprecipitation; human plasma; unit not given, with: Band 3 peptide 1-56 bait; reference: negative control): 0.463

GSGAGIESNV
binding intensity (human MAGI1-2/6 PDZ construct (MBP fusion); automated holdup; peptide, purified PDZ protein; concentration not given, unit not given; reference: biotin control resin, higher = stronger binding): -0.0665

human LDL receptor
co-IP enrichment (co-immunoprecipitation; human RBC cytosol; unit not given, with: Band 3 peptide 1-56 bait; reference: negative control): 0

VLAQWIPRL
reporter activation (Jurkat T cells expressing 1G4 TCR; NFAT-eGFP reporter, fluorescence microscopy; peptide; concentration not given, HLA-A*02:01 NY-ESO system): 0.0106%

hemoglobin alpha
co-IP enrichment (co-immunoprecipitation; human RBC cytosol; DSSO crosslinker, unit not given, with: Band 3 peptide 1-56 bait; reference: negative control): 11600

QDEKVKESYV
binding intensity (human SCRIB PDZ3-4 tandem (MBP fusion); automated holdup; peptide, purified PDZ protein; concentration not given, unit not given; reference: biotin control resin, higher = stronger binding): 0.561

milbemycin oxime
OD600 (Saccharomyces cerevisiae; cell growth; Pdr5 deleted, Cdr1 overexpressed; 2^-3.966 µg/mL, with: fluconazole 10 µg/mL): 0.029 and 0.037

Some of these lines once more:
GSGAGQITKV
binding intensity (human MAGI1-3/6 PDZ construct (MBP fusion); automated holdup; peptide, purified PDZ protein; concentration not given, unit not given; reference: biotin control resin, higher = stronger binding): 0.188

triosephosphate isomerase
co-IP enrichment (co-immunoprecipitation; human RBC membrane; DSSO crosslinker, unit not given, with: Band 3 peptide 1-56 bait; reference: negative control): 0.497

Teicoplanin
recovery (QC solution; 2 days, 2–6 °C, low QC level): 99.2%

USP14
co-IP enrichment (co-immunoprecipitation; human RBC cytosol; DSSO crosslinker, unit not given, with: Band 3 peptide 1-56 bait; reference: negative control): 6540

RLYQWIPQV
reporter activation (Jurkat T cells expressing 1G4 TCR; NFAT-eGFP reporter, fluorescence microscopy; peptide; concentration not given, HLA-A*02:01 NY-ESO system): 1.31%
